# Measured values from different studies.
# Values joined by “and” are separate records of one study, mostly repeats; a detail may differ. ± gives the spread as reported.
SMILES,target or system,test,system,setting,how to read,quantity,value
O[C@H]1CCCN[C@@H]1CCCn1cnc2c(Cl)c(Cl)ccc21,,,human,,,effect of UGT2B7 phenotype on pharmacokinetics,no effect
COc1ncnn2ccc(-c3cnc4nc(C)n(Cc5nnc([C@@H](C)F)o5)c4c3)c12,,,human,"oral, dose not given, grade 5",,patients with malaise,0%
C[C@]1(CO)Cc2ncn(-c3ccc(C#N)c(Cl)c3)c2C(=O)O1,,,"healthy Japanese adults, plasma",3 mg single dose,,Tmax,1 h
CC(C)C[C@H](NC(=O)[C@H](CCCCN)NC(=O)OCC1c2ccccc2-c2ccccc21)C(=O)N[C@H](C(=O)N[C@@H](Cc1ccccc1)C(=O)N[C@@H](Cc1ccccc1)C(=O)N[C@@H](CCCCN)C(=O)NCC(=O)N[C@@H](Cc1ccccc1)C(=O)N[C@@H](C)C(=O)N[C@@H](Cc1c[nH]c2ccccc12)C(=O)N[C@@H](CC(N)=O)C(=O)N[C@H](C(=O)N[C@H]1CSSC[C@@H](C(=O)N[C@@H](Cc2c[nH]cn2)C(=O)N[C@@H](CCCNC(=N)N)C(=O)N[C@@H](CCCNC(=N)N)C(=O)N[C@@H](C)C(=O)N[C@@H](CC(N)=O)C(N)=O)NC(=O)[C@H](C(C)C)NC(=O)[C@H](CCCNC(=N)N)NC(=O)[C@H](C(C)C)NC(=O)CNC(=O)[C@H](CC(N)=O)NC(=O)[C@H](CCCNC(=N)N)NC(=O)[C@H](Cc2ccc(O)cc2)NC(=O)[C@H](C(C)C)NC1=O)C(C)C)C(C)C,,HPLC,mouse liver homogenate 50 mg/mL,8.00 h,,peptide remaining,38.4% and 34.1% and 40.8%
CCN1[C@@H](C(=O)NC23CCC(C(=O)O)(CC2)CC3)[C@H](c2cccc(Cl)c2F)[C@]2(C(=O)Nc3cc(Cl)ccc32)C12CCCCC2,,,patients with advanced solid tumours,"oral, 100 mg",,any-grade adverse event incidence,100%
CC(=O)c1c(C)c2cnc(Nc3ccc(C4CCN(CCS(C)(=O)=O)CC4)cn3)nc2n(C2CCCC2)c1=O,,,"human, plasma","oral, dose not given, steady state, continuous dosing, range over doses",,CL,824 to 3190 mL/min
CC(C)c1nc(N(C)S(C)(=O)=O)nc(-c2ccc(F)cc2)c1/C=C/[C@@H](O)C[C@@H](O)CC(=O)O,,,healthy human subjects,"oral, dose not given, study CL-0537 safety set",,incidence of renal disorders,0%
COc1cc(C2C3=C(COC3=O)N(CCO)c3cc4c(cc32)CCC4)cc(OC)c1OC (centres unmarked),,,female C57BL/6 mice,"intraperitoneal, 400 mg/kg, 48 h, single dose, mean",,body weight,20.7 g
O=C(O)CCCOc1ccc(F)cc1-c1cc(-c2ccccc2C(F)(F)F)n(-c2ccccc2)n1,,item: T-Cho,"Crl:CD(SD) rats, female, blood","iv, 25 µg/kg, 14 days",,blood chemistry,56.4 ± 2.7 mg/dL
Cc1c(COC(=O)[C@@H]2[C@H](/C=C(\Cl)C(F)(F)F)C2(C)C)cccc1-c1ccccc1 (racemic),,item: CYP3A5,"human, age 6 months, recombinant human CYP3A5",0.1 µM,,enzyme contribution to clearance,2.36%
CO[C@H]1C[C@@H]2CC[C@@H](C)[C@@](O)(O2)C(=O)C(=O)N2CCCC[C@H]2C(=O)O[C@H]([C@H](C)C[C@@H]2CC[C@@H](OC(=O)NCCOCCOCCOCCOCCOCCOCCOCCOCCC(=O)N3CCc4cc(Cn5nc(-c6ccc7oc(N)nc7c6)c6c(N)ncnc65)ccc4C3)[C@H](OC)C2)C[C@@H](O)[C@H](C)/C=C(\C)[C@@H](O)[C@@H](OC)C(=O)[C@H](C)C[C@H](C)/C=C/C=C/C=C/1C,,"phase 1 dose escalation, item: vomiting",advanced solid tumour patients,"intravenous, 12 mg weekly, grade ≥3",,TRAE incidence,8.3%
C[C@H]1COCCN1c1nc(NCc2cccnc2C(F)(F)F)c2cccnc2n1,,,"male CD-1 mouse, femur bone marrow","oral, 1000 mg/kg twice, 48 h",,micronucleated PCE,0% and 0.2% and 0.05%
Cc1cc(C)cc(-c2ccc(CN3CCCC3C(=O)NCc3cccc(F)c3)cc2)c1 (centres unmarked),Vero-E6,CellTiter-Glo ATP,,"concentration not given, 72 h, retest 8-point duplicates","relative to: DMSO 0%, hyamine -100%, more negative, more toxic",cytotoxicity efficacy,-24.3%
O=C(Nc1ccccc1)C1CCN(C(=O)Oc2cccnc2)CC1,,Bond-Lader VAS,healthy women,"oral, 20 mg","relative to: pre-dose baseline, direction not given",change in Incompetent-Proficient score,5.4
NCCCC[C@@H]1NC(=O)[C@@H](Cc2c[nH]c3ccccc23)NC(=O)[C@H](c2ccccc2)NC(=O)[C@@H]2C[C@@H](OC(=O)NCCN)CN2C(=O)[C@H](Cc2ccccc2)NC(=O)[C@H](Cc2ccc(OCc3ccccc3)cc2)NC1=O,,,healthy human volunteers,1950 µg twice daily,,subjects with adverse event Vomiting,39%
CN(C)c1ccc(-c2nc(-c3cccs3)c(-c3cccs3)[nH]2)cc1,Vero-E6,CellTiter-Glo ATP,,"concentration not given, 72 h, first round 5-point","relative to: DMSO 0%, hyamine -100%, more negative, more toxic",cytotoxicity efficacy,0%
O=S(=O)(Nc1ccccc1)c1ccc(NC(=S)Nc2ccccc2)cc1,,,"mouse, female, blood","oral, 5 mg/kg daily, 14 days",,mean corpuscular haemoglobin concentration,30.6 g/dL
COc1ccc([C@@H]2CC(=O)c3c(O)cc(O)cc3O2)cc1O,,,"male Sprague-Dawley rat, obese","oral, 100 mg/kg of neohesperidin, 0 to 12 h",,faecal excreted amount,489 ± 324 ng
C[C@H]1CN(C(=O)CC#N)[C@]12CCN(c1ncnc3[nH]ccc13)C2,,,dog female,"oral, 0.6 mg/kg repeated daily, 9 months, repeated-dose toxicity study",,Cmax at NOAEL,310 ng/mL
CCc1ccc(CC/C=C/c2ccc3c(c2)C(=O)CC3)cc1,,,"Sprague-Dawley rat, male","oral, 120 mg/kg/day, 14 days",,ALT serum activity,86.7 U/L
C=C(CN(C(=O)c1c(C(F)F)nn(C)c1F)C1CC1)c1ccc(Cl)cc1Cl,,static acute toxicity test,zebrafish (Brachydanio rerio),"1.00 mg a.i./L, 96 h",,mortality,50%
COc1cccc(Oc2ccccc2NC(=O)CNC(=O)c2cccc3ccccc23)c1,,,"esterase-deficient SCID mice, male","oral, 100 mg/kg/day, 14 days, toxicity study",,bicarbonate (total CO2),22 mmol/L and 18 mmol/L and 20 mmol/L
COc1ncccc1-c1cnn2ccc(N3CCN(C(=O)OC(C)C)CC3)nc12,,,"mouse nerve ligation model, brain","oral, 3 mg/kg, 30 min after last dose, repeat dosing day 5",,drug concentration,2900 nM
CN1CC[C@@H](c2c(O)cc(O)c3c(=O)cc(-c4ccc(C(F)(F)F)cc4Cl)oc23)[C@@H]1CO,,item: Syncope,relapsed B-cell malignancies,"oral, 200 mg, grade 3-4, intermittent dosing",,patients with adverse event,0%
COc1ccc2nc3cc(Cl)ccc3c(Nc3cc(CN4CCCC4)c(O)c(CN4CCCC4)c3)c2n1,,,"mouse, blood","intraperitoneal, 57 mg/kg",,mean platelet volume,6.1 fL
COc1cc2c(Oc3ccc4[nH]c(C)cc4c3F)ccnc2cc1OCC1(N)CC1,,item: grade 1 or 2 hand-foot syndrome,paediatric high-risk refractory sarcoma,whole group,,incidence of adverse event,26.5%
C[C@@H]1OC(=O)NN=C1c1ccc(-c2ccc(F)cc2)c(C(F)(F)F)c1,,"phase I trial, item: Fatigue worst grade 1",human patients,20 mg loading then 1 mg daily,,patients with adverse event,100%
COc1ccc([C@@H](O)c2cc(-c3ncnc4cc(N5CCOCC5)ccc34)c(F)cc2Cl)nn1,,,"patients, advanced solid tumours","oral, 300 mg twice daily, treatment-emergent, together with: avelumab",,stomatitis incidence,4%
N#C/N=C1\SCCN1Cc1ccc(Cl)nc1,,,soil,"0 days, nominal 0.12",,recovery,50%

# Some of these lines once more:
SMILES,target or system,test,system,setting,how to read,quantity,value
C[C@]1(CO)Cc2ncn(-c3ccc(C#N)c(Cl)c3)c2C(=O)O1,,,"healthy Japanese adults, plasma",3 mg single dose,,Tmax,1 h
CO[C@H]1C[C@@H]2CC[C@@H](C)[C@@](O)(O2)C(=O)C(=O)N2CCCC[C@H]2C(=O)O[C@H]([C@H](C)C[C@@H]2CC[C@@H](OC(=O)NCCOCCOCCOCCOCCOCCOCCOCCOCCC(=O)N3CCc4cc(Cn5nc(-c6ccc7oc(N)nc7c6)c6c(N)ncnc65)ccc4C3)[C@H](OC)C2)C[C@@H](O)[C@H](C)/C=C(\C)[C@@H](O)[C@@H](OC)C(=O)[C@H](C)C[C@H](C)/C=C/C=C/C=C/1C,,"phase 1 dose escalation, item: vomiting",advanced solid tumour patients,"intravenous, 12 mg weekly, grade ≥3",,TRAE incidence,8.3%
NCCCC[C@@H]1NC(=O)[C@@H](Cc2c[nH]c3ccccc23)NC(=O)[C@H](c2ccccc2)NC(=O)[C@@H]2C[C@@H](OC(=O)NCCN)CN2C(=O)[C@H](Cc2ccccc2)NC(=O)[C@H](Cc2ccc(OCc3ccccc3)cc2)NC1=O,,,healthy human volunteers,1950 µg twice daily,,subjects with adverse event Vomiting,39%
C[C@@H]1OC(=O)NN=C1c1ccc(-c2ccc(F)cc2)c(C(F)(F)F)c1,,"phase I trial, item: Fatigue worst grade 1",human patients,20 mg loading then 1 mg daily,,patients with adverse event,100%
O=C(Nc1ccccc1)C1CCN(C(=O)Oc2cccnc2)CC1,,Bond-Lader VAS,healthy women,"oral, 20 mg","relative to: pre-dose baseline, direction not given",change in Incompetent-Proficient score,5.4
